Measured values pooled from the literature.
A part holds a random share of what one study measured.

Set 1
Target: Prothrombin, mature alpha-thrombin (F2, Homo sapiens, UniProt P00734)
Technique: aptamer microarray, sandwich
Molecule type: DNA with 2'F-ANA
Medium: in vitro
Tested at: 200 nM
Setting: whole 15-mer aptamer, many near background
With: Cy3 exosite-II aptamer, 400 nM
Direction: higher = stronger binding
Endpoint: mean fluorescence intensity
Sequence: GGTTGGTGTGGTTGG
2'F-ANA at 1 3 5 9 10 11 12 13 14: 80.2 a.u.
2'F-ANA at 1 4 7 11 12 14 15: 58.5 a.u.
2'F-ANA at 1 2 3 4 9 13: 97.6 a.u.
2'F-ANA at 1 2 3 4 5 7 8 12 14 15: 62.2 a.u.
2'F-ANA at 1 4 5 8 9 10 12 14 15: 55.9 a.u.
2'F-ANA at 1 5 6 8 9: 103 a.u.
2'F-ANA at 1 4 12 13 14 15: 55.2 a.u.
2'F-ANA at 1 2 3 5 6 7 8 9 10 11 12 15: 53.1 a.u.
2'F-ANA at 2 3 4 6 7 10 12 15: 280 a.u.
2'F-ANA at 1 3 4 5 6 7 8 12: 152 a.u.
2'F-ANA at 3 14: 671 a.u.
2'F-ANA at 2 3 4 10 11: 263 a.u.
2'F-ANA at 1 2 5 6 7 8 10 11 13 14: 58.8 a.u.
2'F-ANA at 3 7 8 10 13: 577 a.u.
2'F-ANA at 1 8 10 11: 50.1 a.u.
2'F-ANA at 2 5 9 11 15: 60.8 a.u.
2'F-ANA at 1 3 4 5 7 8 14 15: 45.1 a.u.
2'F-ANA at 2 3 5 8 9 10 12 14: 54.2 a.u.
2'F-ANA at 1 7 13 15: 171 a.u.
2'F-ANA at 1 2 4 5 6 8 9 11 12 14: 48.1 a.u.
2'F-ANA at 3 4 5 6 10 11 12 13 14 15: 95.3 a.u.
2'F-ANA at 4 7 10 13 14 15: 58.4 a.u.
2'F-ANA at 2 3 10 11: 412 a.u.
2'F-ANA at 1 2 4 5 6 7 8 10 11 13: 52.9 a.u.
2'F-ANA at 1 2 5 6 7 8 12 13: 87.6 a.u.

Set 2
Target: Sal-like protein 4, full length isoform A (SALL4, Homo sapiens, UniProt Q9UJQ4, residues 1-1053)
UniProt Q9UJQ4, sequence (whole entry, looked up): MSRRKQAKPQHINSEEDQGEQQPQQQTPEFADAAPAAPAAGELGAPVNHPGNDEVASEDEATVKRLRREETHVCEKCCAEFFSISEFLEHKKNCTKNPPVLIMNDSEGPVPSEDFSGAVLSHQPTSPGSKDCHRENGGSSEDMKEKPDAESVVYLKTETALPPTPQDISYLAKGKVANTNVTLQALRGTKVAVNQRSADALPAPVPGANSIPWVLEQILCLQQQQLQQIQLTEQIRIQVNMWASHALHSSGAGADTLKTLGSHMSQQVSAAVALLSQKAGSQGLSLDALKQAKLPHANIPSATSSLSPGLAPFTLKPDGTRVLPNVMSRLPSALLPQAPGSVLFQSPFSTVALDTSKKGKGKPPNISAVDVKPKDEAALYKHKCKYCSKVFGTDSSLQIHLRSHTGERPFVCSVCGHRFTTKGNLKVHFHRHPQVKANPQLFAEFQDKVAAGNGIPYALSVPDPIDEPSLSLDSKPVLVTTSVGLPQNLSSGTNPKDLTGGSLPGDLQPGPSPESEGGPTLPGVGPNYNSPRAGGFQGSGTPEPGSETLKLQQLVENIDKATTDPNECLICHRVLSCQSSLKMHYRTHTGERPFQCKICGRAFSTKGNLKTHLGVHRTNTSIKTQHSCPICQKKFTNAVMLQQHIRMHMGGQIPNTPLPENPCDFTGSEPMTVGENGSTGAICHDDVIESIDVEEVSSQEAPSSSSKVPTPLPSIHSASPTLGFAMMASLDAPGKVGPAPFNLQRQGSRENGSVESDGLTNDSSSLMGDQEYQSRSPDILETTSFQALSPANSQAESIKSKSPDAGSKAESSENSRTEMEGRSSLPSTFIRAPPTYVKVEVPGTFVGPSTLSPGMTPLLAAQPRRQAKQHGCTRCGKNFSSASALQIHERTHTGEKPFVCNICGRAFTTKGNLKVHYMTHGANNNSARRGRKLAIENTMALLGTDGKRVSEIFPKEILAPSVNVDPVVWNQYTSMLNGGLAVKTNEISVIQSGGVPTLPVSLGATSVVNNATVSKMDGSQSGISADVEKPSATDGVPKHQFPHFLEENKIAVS
Technique: universal PBM
Molecule type: double-stranded DNA, one strand shown
Medium: in vitro
Tested at: 600 nM
Setting: 8-mer, flanks averaged, mean of replicates
Direction: higher = stronger binding
Endpoint: E-score
GATATCAC: 0.142
ACAATGGA: 0.117
GCTCAACA: -0.0536
TACTTTGA: 0.15
CTGCAATC: 0.0383
ACGTACTA: 0.103
AGGTTTTC: 0.143
CTGTAGAA: 0.153
TAGTAGAA: 0.123
GAGCTTAC: -0.0927
AAACTGAC: -0.0983
GCATAGAA: 0.0182
CCTTCTGC: -0.173
ATCACAGA: 0.0897
ATTTGGAG: 0.00184
AACCCTGC: -0.196
TCACACCA: 0.0362
ACTCACCG: -0.114
AATTGATA: 0.316
ACAAACGA: 0.0613
TAACTCGA: 0.145
TAGTCAAA: 0.276
AGCGCCGA: -0.193
AGCGCGCG: -0.249
GCGAGCCA: -0.217

Set 3
Target: Fragile X messenger ribonucleoprotein 1, C-terminal low-complexity region (Fmr1, Mus musculus, UniProt P35922)
Technique: RNA Bind-n-Seq
Molecule type: RNA
Medium: in vitro
Tested at: 200 nM
Setting: whole 134-nt RNA, ends assumed
With: 150 mM LiCl
Baseline: input library
Direction: higher = stronger binding
Endpoint: log2 enrichment
All molecules: 7-deaza-guanosine replaces G
Shared flanks, not repeated: GGGAGUUCUACAGUCCGACGAUC … UGGAAUUCUCGGGUGUCAAGG
CACAGACAACACGCACCCACACAGACACAGAGGGAAGGGGUUGGGAUGGGGACAGGGUGCACAGCAGGGCGGGGUAGGACCCCGGCCCCU: -0.455
CUCAAGUCCUGUGCUACACAUCGUAUGUACCGAAUCGGCCGGGCCGGCCGGGGAAAGUAUUAUGUUACGCCGUUCGGAUCUGCACUUCCA: 0.304
CAAGUCCUGUGCUACACAUCGUAUGUACCGAAUCGGGGAGGGGUUUGGGGUGGGGAAAGUAUUAUGUUACGCCGUUCGGAUCUGCACUUC: 0.324
CAGCAGCAGAGUGAGUGGAUUUUAUUUUUCGUUAUUGUUGGUGGUUUAAAAAAUUCCCCCCAUGUAAUUAUUGUGAACACCUUGCUUUGU: -0.609
UGGGAGGUGGAUUUUGUUUAUUUUUUUAGCUCAUUUCCAGGGGUGGGAAUUUUUUUUUAAUAUGUGUCAUGAAUAAAGUUGUUUUUGGAA: -0.445
CCUCAAGUCCUGUGCUACACAUCGUAUGUACCGAAUCGGGGAGGGGAGGAGGGAAAGUAUUAUGUUACGCCGUUCGGAUCUGCACUUCCA: -0.483
UCAAGUCCUGUGCUACACAUCGUAUGUACCGAAUCGGUUUGGAAAAAGGUUUGGAAAGUAUUAUGUUACGCCGUUCGGAUCUGCACUUCC: -2.15
UUAGAAGAAUUUGGAAGGCCUUAAAUAUAGUAGCUUAGUUUGAAAAAUGUGAAGGACUUUCGUAACGGAAGUAAUUCAAGAUCAAGAGUA: -3.6

Set 4
Target: Interferon regulatory factor 7, full length, phosphomimetic (IRF7, Homo sapiens, UniProt Q92985, residues 1-503, S101K/S471D/S472D/S475D/S476D/S477D/S483D/S484D/S487D)
Technique: protein-binding microarray
Molecule type: double-stranded DNA, one strand shown
Medium: in vitro
Tested at: 250 nM
Setting: 60-bp whole probe
With: salmon DNA 0.4 mg/ml
Baseline: random background probes
Direction: higher = stronger binding
Endpoint: log fluorescence
Shared flanks, not repeated: GCCTAGCAC … GTCTTGATTCGCTTGACGCTGCTG
Target sequence (chain): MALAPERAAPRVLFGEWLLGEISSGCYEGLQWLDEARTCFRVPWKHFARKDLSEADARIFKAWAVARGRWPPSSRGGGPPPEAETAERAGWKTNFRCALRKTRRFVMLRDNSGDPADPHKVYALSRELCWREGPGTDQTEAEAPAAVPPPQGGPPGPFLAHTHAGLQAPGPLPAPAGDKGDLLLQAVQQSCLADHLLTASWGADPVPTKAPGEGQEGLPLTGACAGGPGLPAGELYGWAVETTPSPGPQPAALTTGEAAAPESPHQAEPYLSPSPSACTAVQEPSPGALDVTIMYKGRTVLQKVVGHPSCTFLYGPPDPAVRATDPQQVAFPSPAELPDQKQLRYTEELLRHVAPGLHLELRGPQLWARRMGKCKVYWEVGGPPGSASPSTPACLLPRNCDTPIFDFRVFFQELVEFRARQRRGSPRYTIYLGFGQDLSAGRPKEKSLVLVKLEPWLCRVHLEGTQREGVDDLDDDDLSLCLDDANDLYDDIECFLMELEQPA
GCTAGTATGTTCCTTATTTAAGTGCTA: 0.403 z-score
TTAGGTATCCGGACTGGGTTAGTGCTA: -0.381 z-score
TTAGGACTGCTTCTCATTTAGTGCTAG: 0.752 z-score
TTAGATATCTGTATCGATTAGTGCTAG: 0.204 z-score
GACGGTATCATACTGCTGACGTGCTAG: -0.209 z-score
TCAGGTCTGGATGTGCCACTGTGCTAG: -0.509 z-score
GACGGTTTCCTTTTCCAGACGTGCTAG: 6.14 z-score
TTCGGTTTCGACTATCGGTTAGTGCTA: 6.43 z-score
TCACTTTTCCATTTTGTACTGTGCTAG: 2.65 z-score
ACTGCTCTGTTGCCTGGTCCTGTGCTA: -0.284 z-score
ATCTTCATGAAATTTTAATAAGTGCTA: -0.0152 z-score
TTAAATTTTAATAACACAGAGTGCTAG: -0.212 z-score
CTAGGTTTCGGGACTGGGTTAGTGCTA: 4.39 z-score
GACGATTTCAGTCTAGAGACGTGCTAG: 0.336 z-score
ATTTTTTTATCAATCATTTTGTGCTAG: 0.862 z-score
TTAGGACTGGGTTTCGGTTGGTGCTAG: 7.33 z-score
GCCGATTTCGGGTATCGAGACGTGCTA: 1.47 z-score
GACGGTTTCGGGACTGGGTACGTGCTA: 4.07 z-score
TCATTTTTAGATATCTTACTGTGCTAG: 0.74 z-score
